Experimental data from different studies.
Lines come from different studies, so protocols differ. ± marks the error that the study gave.
YES1 SH2 domain: Tyrosine-protein kinase Yes, SH2 domain (YES1, Homo sapiens, UniProt P07947)
Sequence of UniProt P07947 (whole entry, looked up): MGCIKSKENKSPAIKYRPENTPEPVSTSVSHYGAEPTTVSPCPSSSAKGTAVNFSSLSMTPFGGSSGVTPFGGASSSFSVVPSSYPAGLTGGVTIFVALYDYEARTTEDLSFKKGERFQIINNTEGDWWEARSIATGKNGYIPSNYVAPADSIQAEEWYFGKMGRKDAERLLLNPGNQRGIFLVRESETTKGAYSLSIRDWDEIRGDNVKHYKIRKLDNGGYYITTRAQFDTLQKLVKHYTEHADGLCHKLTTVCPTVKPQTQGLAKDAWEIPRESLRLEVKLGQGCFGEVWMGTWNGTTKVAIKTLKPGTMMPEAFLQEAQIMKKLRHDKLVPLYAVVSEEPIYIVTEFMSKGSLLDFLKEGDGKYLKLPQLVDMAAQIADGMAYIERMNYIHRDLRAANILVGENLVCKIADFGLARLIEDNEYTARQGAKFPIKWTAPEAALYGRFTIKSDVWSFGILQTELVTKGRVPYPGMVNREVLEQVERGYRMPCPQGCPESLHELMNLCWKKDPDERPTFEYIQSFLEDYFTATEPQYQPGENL
Phosphatidylinositol 3-kinase regulatory subunit gamma SH2 domain: Phosphatidylinositol 3-kinase regulatory subunit gamma, SH2 domain (Homo sapiens, UniProt Q92569)
PRT1: E3 ubiquitin-protein ligase PRT1 (PRT1, Arabidopsis thaliana, UniProt Q8LBL5)
Sequence of UniProt Q8LBL5 (whole entry, looked up): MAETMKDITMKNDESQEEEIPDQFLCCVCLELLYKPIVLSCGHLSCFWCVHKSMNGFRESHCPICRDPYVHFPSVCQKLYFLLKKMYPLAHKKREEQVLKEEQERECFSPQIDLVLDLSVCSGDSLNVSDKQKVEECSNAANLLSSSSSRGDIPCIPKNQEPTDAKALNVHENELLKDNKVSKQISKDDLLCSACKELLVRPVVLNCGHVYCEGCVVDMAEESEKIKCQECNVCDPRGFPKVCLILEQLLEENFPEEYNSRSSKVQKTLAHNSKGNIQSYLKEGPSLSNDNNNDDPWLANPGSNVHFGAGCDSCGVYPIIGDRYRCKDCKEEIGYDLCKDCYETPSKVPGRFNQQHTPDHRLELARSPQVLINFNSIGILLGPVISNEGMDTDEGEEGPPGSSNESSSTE
Sequence of UniProt P16885 (whole entry, looked up): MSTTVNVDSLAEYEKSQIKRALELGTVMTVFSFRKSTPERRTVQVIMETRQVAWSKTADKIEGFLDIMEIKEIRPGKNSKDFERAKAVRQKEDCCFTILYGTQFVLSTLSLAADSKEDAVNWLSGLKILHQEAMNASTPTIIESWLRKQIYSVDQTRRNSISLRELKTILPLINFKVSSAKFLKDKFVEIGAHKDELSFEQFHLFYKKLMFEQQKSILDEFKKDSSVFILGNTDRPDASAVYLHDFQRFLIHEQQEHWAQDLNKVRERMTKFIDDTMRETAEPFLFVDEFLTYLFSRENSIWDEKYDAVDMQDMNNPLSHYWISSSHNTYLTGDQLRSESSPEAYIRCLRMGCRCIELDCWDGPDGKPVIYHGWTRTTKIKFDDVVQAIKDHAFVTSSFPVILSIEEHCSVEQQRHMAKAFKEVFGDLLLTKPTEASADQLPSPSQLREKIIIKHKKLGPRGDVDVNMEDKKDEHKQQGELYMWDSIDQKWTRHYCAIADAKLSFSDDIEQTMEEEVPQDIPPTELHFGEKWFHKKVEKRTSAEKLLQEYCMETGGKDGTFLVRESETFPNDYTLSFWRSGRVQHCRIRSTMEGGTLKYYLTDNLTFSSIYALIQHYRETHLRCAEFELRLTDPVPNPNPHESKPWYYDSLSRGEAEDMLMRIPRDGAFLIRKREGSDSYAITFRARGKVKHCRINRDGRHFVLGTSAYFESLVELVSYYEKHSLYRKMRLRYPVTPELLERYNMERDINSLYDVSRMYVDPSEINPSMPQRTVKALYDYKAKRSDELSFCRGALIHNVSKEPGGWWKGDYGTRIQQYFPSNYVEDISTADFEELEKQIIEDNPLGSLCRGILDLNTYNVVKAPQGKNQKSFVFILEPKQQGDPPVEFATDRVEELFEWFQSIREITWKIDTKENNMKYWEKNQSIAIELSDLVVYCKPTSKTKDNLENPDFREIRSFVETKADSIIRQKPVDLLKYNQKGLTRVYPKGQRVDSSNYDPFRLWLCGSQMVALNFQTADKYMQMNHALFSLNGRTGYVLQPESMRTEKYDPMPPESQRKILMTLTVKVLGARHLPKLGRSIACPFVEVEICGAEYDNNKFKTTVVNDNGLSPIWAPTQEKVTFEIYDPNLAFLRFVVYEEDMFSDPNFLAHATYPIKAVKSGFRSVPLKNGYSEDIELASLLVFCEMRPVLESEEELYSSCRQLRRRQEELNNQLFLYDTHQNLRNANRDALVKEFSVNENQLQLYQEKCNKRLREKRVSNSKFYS
Sequence of UniProt P03023 (whole entry, looked up): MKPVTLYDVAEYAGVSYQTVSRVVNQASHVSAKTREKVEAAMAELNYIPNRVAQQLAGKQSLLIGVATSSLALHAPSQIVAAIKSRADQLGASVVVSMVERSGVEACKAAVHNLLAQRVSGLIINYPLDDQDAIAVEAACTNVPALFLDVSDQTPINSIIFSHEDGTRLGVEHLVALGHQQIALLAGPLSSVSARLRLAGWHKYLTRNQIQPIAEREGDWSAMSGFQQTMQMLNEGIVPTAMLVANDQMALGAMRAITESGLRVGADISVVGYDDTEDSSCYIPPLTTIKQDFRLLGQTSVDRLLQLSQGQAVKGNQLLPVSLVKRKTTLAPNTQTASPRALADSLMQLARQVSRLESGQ
Sequence of UniProt P52003 (whole entry, looked up): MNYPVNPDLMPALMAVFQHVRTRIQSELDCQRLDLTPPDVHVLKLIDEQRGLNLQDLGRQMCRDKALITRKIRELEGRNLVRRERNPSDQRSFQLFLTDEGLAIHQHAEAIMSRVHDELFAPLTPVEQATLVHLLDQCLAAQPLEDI
Sequence of UniProt Q9EP73 (whole entry, looked up): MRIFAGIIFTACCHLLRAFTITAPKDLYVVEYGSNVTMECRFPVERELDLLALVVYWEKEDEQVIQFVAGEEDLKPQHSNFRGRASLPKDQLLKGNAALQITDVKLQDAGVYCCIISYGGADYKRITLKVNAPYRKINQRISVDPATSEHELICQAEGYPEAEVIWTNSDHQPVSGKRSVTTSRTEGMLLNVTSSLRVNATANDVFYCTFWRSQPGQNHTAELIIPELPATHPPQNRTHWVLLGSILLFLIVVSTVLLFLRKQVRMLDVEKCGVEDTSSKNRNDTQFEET
Sequence of UniProt Q06151 (whole entry, unmodified, looked up): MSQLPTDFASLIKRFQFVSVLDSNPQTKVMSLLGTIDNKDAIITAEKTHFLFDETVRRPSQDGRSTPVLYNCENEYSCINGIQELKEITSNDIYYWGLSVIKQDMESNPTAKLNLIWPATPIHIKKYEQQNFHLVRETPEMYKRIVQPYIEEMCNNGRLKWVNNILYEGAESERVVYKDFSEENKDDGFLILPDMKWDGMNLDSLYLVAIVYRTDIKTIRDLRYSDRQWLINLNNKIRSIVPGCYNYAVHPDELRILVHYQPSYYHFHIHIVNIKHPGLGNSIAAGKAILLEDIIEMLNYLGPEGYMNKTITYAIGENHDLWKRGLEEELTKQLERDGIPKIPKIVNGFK
Sequence of UniProt P12004 (whole entry, looked up): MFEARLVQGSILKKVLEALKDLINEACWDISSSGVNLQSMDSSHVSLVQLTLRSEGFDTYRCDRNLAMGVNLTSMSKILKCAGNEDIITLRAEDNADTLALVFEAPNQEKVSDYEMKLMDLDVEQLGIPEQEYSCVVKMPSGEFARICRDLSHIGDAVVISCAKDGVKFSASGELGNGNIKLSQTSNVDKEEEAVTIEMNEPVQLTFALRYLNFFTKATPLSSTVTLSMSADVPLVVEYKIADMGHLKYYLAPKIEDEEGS
Sequence of UniProt P21553 (whole entry, unmodified, looked up): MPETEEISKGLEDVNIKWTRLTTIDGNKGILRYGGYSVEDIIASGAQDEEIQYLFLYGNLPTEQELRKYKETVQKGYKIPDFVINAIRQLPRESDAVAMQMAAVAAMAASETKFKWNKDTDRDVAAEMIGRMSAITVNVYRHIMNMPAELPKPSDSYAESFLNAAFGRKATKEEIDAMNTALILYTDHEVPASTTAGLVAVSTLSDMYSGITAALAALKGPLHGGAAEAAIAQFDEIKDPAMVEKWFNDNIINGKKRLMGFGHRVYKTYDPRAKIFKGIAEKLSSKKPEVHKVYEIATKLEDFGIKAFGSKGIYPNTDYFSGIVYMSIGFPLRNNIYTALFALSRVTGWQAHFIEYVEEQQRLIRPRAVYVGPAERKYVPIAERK
Sequence of UniProt P40874 (whole entry, looked up): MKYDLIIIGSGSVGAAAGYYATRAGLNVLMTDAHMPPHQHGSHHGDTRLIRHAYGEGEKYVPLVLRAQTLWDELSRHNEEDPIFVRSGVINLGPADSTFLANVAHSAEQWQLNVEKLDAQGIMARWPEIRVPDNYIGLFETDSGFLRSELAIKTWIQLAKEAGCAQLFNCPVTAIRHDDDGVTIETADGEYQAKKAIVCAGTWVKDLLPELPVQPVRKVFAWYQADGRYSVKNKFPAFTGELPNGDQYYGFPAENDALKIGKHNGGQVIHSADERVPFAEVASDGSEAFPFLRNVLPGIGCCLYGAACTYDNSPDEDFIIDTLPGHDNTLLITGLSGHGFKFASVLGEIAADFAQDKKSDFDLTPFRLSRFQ

With CSCC[C@H](NC(=O)[C@H](CC(=O)O)NC(=O)c1ccc2c(c1)C(=O)OC21c2ccc(N(C)C)cc2Oc2cc(N(C)C)ccc21)C(=O)N[C@@H](CO)C(=O)N[C@@H](CCCCN)C(=O)N[C@@H](CC(=O)O)C(=O)N[C@@H](CCC(=O)O)C(=O)N[C@@H](CO)C(=O)N[C@H](C(=O)N[C@@H](CC(=O)O)C(=O)N[C@@H](Cc1ccc(OP(=O)(O)O)cc1)C(=O)N[C@H](C(=O)N1CCC[C@H]1C(=O)N[C@@H](CCSC)C(=O)N[C@@H](CC(C)C)C(=O)N[C@@H](CC(=O)O)C(=O)N[C@@H](CCSC)C(=O)N[C@@H](CCCCN)C(=O)N[C@@H](CC(=O)O)C(=O)O)C(C)C)C(C)C the Kd was 425 nM (1-phosphatidylinositol 4,5-bisphosphate phosphodiesterase gamma-2, SH2 domain (PLCG2, Homo sapiens, UniProt P16885); binding).
For CN[C@@H](Cc1c[nH]c2ccccc12)C(=O)O, the Kd was 973000 ± 42000 nM (N-methyl-L-tryptophan oxidase, oxidized (solA, Escherichia coli, UniProt P40874); spectral titration; oxidised enzyme).
The Kd of CC[C@H](C)[C@H](NC(=O)[C@H](Cc1ccc(OP(=O)(O)O)cc1)NC(=O)[C@H](CCC(=O)O)NC(=O)[C@@H]1CCCN1C(=O)[C@@H](NC(=O)[C@@H]1CCCN1C(=O)[C@H](CC(C)C)NC(=O)[C@H](Cc1ccccc1)NC(=O)[C@@H](NC(=O)[C@H](CC(=O)O)NC(=O)[C@H](CC(=O)O)NC(=O)c1ccc2c(c1)C(=O)OC21c2ccc(N(C)C)cc2Oc2cc(N(C)C)ccc21)[C@@H](C)O)C(C)C)C(=O)N[C@@H](CC(N)=O)C(=O)N[C@@H](CCC(N)=O)C(=O)N[C@@H](CO)C(=O)N[C@H](C(=O)N1CCC[C@H]1C(=O)N[C@@H](CCCCN)C(=O)N[C@@H](CC(=O)O)C(=O)O)C(C)C is reported as 300 nM (Tyrosine-protein kinase Blk, SH2 domain (BLK, Homo sapiens, UniProt P51451); binding).
With CC[C@H](CO)Nc1nc(NCc2ccc(-c3ccccn3)cc2)c2ncn(C(C)C)c2n1 the Kd was 3300 nM (DYRK1A (Homo sapiens, UniProt Q13627); binding, competition affinity chromatography; SH-SY5Y cell extract).
With CC[C@H](C)[C@H](NC(=O)c1ccc2c(c1)C(=O)OC21c2ccc(N(C)C)cc2Oc2cc(N(C)C)ccc21)C(=O)N[C@@H](CCCCN)C(=O)N[C@@H](CCC(=O)O)C(=O)N[C@@H](CC(=O)O)C(=O)N[C@@H](CO)C(=O)N[C@@H](Cc1ccccc1)C(=O)N[C@@H](CC(C)C)C(=O)N[C@@H](CCC(N)=O)C(=O)N[C@@H](CCCNC(=N)N)C(=O)N[C@@H](Cc1ccc(OP(=O)(O)O)cc1)C(=O)N[C@@H](CO)C(=O)N[C@@H](CO)C(=O)N[C@@H](CC(=O)O)C(=O)N1CCC[C@H]1C(=O)N[C@H](C(=O)NCC(=O)N[C@@H](C)C(=O)N[C@@H](CC(=O)O)C(=O)O)[C@@H](C)O the Kd was 295 nM (YES1 SH2 domain; binding).
For Cn1c2cccc(=O)c-2nc2ccccc21, the Kd was 10600 nM (Multidrug resistance operon repressor (mexR, Pseudomonas aeruginosa, UniProt P52003); microscale thermophoresis).
With CC(=O)CCCNC(=O)CCNC(=O)[C@H](O)C(C)(C)COP(=O)(O)OP(=O)(O)OC[C@H]1O[C@@H](n2cnc3c(N)ncnc32)[C@H](O)[C@@H]1OP(=O)(O)O the Kd was 1860 ± 90 nM (gltA, with oxaloacetate (Thermoplasma acidophilum, UniProt P21553, W349Y); fluorescence titration; 20 °C, added: oxaloacetate).
The Kd of CC[C@@H](C)[C@@H](NC(=O)[C@@H](Cc1ccc(O)cc1)NC(=O)[C@H]1CCCN1C(=O)[C@@H](CCCNC(=N)N)NC(=O)[C@H](N)Cc1c[nH]cn1)C(=O)N[C@H](C)C(=O)N[C@H](Cc1c[nH]cn1)C(=O)N[C@H](CCCNC(=N)N)C(=O)N[C@H](CCCCNC(=O)c1cccc(S(=O)(=O)F)c1)C(=O)N[C@H](Cc1ccc(O)cc1)C(=O)N[C@H](CO)C(=O)N[C@H](Cc1ccccc1)C(N)=O is reported as 1300 ± 300 nM (Cd274 (Mus musculus, UniProt Q9EP73); microscale thermophoresis; 2 h, His-tagged protein).
CSCC[C@H](NC(=O)[C@H](CCCCN)NC(=O)[C@H](CCCNC(=N)N)NC(=O)[C@H](CCC(N)=O)NC(=O)[C@H](CCCNC(=N)N)NC(=O)[C@H](CCCNC(=N)N)NC(=O)[C@@H](N)CCCCN)C(=O)N[C@@H](CCC(=O)O)C(=O)N[C@@H](CC(=O)O)C(=O)N[C@@H](Cc1ccc(O)cc1)C(=O)N[C@@H](Cc1ccc(O)cc1)C(=O)N[C@@H](Cc1c[nH]cn1)C(=O)N[C@@H](CO)C(=O)N[C@@H](CCCCN)C(=O)N[C@@H](CCCNC(=N)N)C(N)=O has a Kd of 8.15 nM (PCNA (Homo sapiens, UniProt P12004); binding; pH 7.4).
CC(C)S[C@@H]1O[C@H](CO)[C@H](O)[C@H](O)[C@H]1O has a Kd of 1500 ± 200 nM (lacI (Escherichia coli, UniProt P03023); binding, fluorescence titration; no operator DNA).
The Kd of CC[C@H](C)[C@H](NC(=O)[C@H](CCC(N)=O)NC(=O)[C@@H](NC(=O)[C@@H]1CCCN1C(=O)[C@@H](NC(=O)[C@H](CO)NC(=O)[C@H](Cc1ccccc1)NC(=O)[C@@H]1CCCN1C(=O)[C@H](CCC(N)=O)NC(=O)[C@@H](N)CCSC)[C@@H](C)CC)C(C)C)C(=O)N[C@H](C(=O)N[C@@H](CC(C)C)C(=O)N[C@@H](CCC(N)=O)C(=O)NCC(=O)N[C@@H](CO)C(=O)N[C@@H](CCCNC(=N)N)C(=O)N[C@@H](CCCNC(=N)N)C(=O)N[C@@H](CCCNC(=N)N)C(=O)N[C@@H](CCC(N)=O)C(=O)NCC(=O)N[C@@H](CCCNC(=N)N)C(N)=O)[C@@H](C)O is reported as 270 nM (Kcnma1 (Mus musculus, UniProt Q08460); ion current, blocker, inside-out patch clamp; Xenopus oocytes; +120 mV, added: 10 µM cytosolic Ca2+).
With CN(CC(=O)O)C(=N)NP(=O)(O)O the Kd was 328000 ± 201000 nM (CKMT1A (Homo sapiens, UniProt P12532, H99A); microscale thermophoresis; pH 7.0, H61A mutant, no substrate).
C[n+]1cn([C@@H]2O[C@H](COP(=O)(O)OP(=O)([O-])OP(=O)(O)OC[C@H]3O[C@@H](n4cnc5c(=O)[nH]c(N)nc54)[C@H](O)[C@@H]3O)[C@@H](O)[C@H]2O)c2nc(N)[nH]c(=O)c21 gave a Kd of 65000 nM (m7GpppX diphosphatase, C-terminal domain (DCS1, Saccharomyces cerevisiae, UniProt Q06151, H268N); binding, isothermal titration calorimetry; DcpS C-terminal domain dimer).
The Kd of CC[C@H](C)[C@H](NC(=O)[C@H](Cc1ccc(O)cc1)NC(=O)[C@H](CCC(=O)O)NC(=O)[C@H](Cc1c[nH]cn1)NC(=O)CNC(=O)[C@H](CC(=O)O)NC(=O)[C@H](CO)NC(=O)[C@H](CO)NC(=O)[C@@H](NC(=O)c1ccc2c(c1)C(=O)OC21c2ccc(N(C)C)cc2Oc2cc(N(C)C)ccc21)C(C)C)C(=O)N[C@@H](Cc1ccc(OP(=O)(O)O)cc1)C(=O)N[C@H](C(=O)N[C@@H](CC(=O)O)C(=O)N1CCC[C@H]1C(=O)N[C@@H](CCSC)C(=O)N[C@@H](CCC(N)=O)C(=O)N[C@@H](CC(C)C)C(=O)N1CCC[C@H]1C(=O)N[C@@H](CC(=O)O)C(=O)O)C(C)C is reported as 329 nM (YES1 SH2 domain; binding).
With Nc1ncnc2c1ncn2[C@@H]1O[C@H](COP(=O)(O)OP(=O)(O)OP(=O)(O)O)[C@@H](O)[C@H]1O the Kd was 4600 ± 200 nM (matB (Rhodopseudomonas palustris, UniProt Q6ND88, C106A/K488A/Q457C/R286C); binding; pH 8.0, 100 mM NaCl).
CC(C)C[C@H](NC(=O)[C@H](Cc1ccc(OP(=O)(O)O)cc1)NC(=O)[C@H](CCC(=O)O)NC(=O)[C@H](C)NC(=O)[C@H](CC(N)=O)NC(=O)[C@H](CCC(=O)O)NC(=O)[C@H](C)NC(=O)[C@@H](NC(=O)[C@H](CO)NC(=O)CNC(=O)[C@H](CCCCN)NC(=O)c1ccc2c(c1)C(=O)OC21c2ccc(N(C)C)cc2Oc2cc(N(C)C)ccc21)[C@@H](C)O)C(=O)N[C@@H](CCCNC(=N)N)C(=O)N[C@H](C(=O)N[C@@H](C)C(=O)N1CCC[C@H]1C(=O)N[C@@H](CCC(N)=O)C(=O)N[C@@H](CO)C(=O)N[C@@H](CC(=O)O)C(=O)O)C(C)C has a Kd of 1110 nM (Phosphatidylinositol 3-kinase regulatory subunit gamma SH2 domain; binding).
C[C@H](NC(=O)[C@H](C)NC(=O)[C@@H](N)Cc1ccccc1)C(=O)O has a Kd of 6430 ± 742 nM (PRT1; ITC; pH 7.5, 25 °C).
The Kd of CSCC[C@H](NC(=O)[C@H](CC(C)C)NC(=O)[C@H](C)NC(=O)[C@H](CCCNC(=N)N)NC(=O)[C@H](Cc1ccc(OP(=O)(O)O)cc1)NC(=O)[C@H](Cc1ccccc1)NC(=O)[C@H](CC(N)=O)NC(=O)[C@H](CO)NC(=O)[C@H](CC(=O)O)NC(=O)[C@@H](NC(=O)[C@@H]1CCCN1C(=O)[C@H](CO)NC(=O)[C@@H]1CCCN1C(=O)[C@H](CC(C)C)NC(=O)c1ccc2c(c1)C(=O)OC21c2ccc(N(C)C)cc2Oc2cc(N(C)C)ccc21)[C@@H](C)O)C(=O)N[C@@H](CC(=O)O)C(=O)N[C@@H](CCC(=O)O)C(=O)N[C@@H](CCC(=O)O)C(=O)N[C@@H](CC(=O)O)C(=O)O is reported as 968 nM (Phosphatidylinositol 3-kinase regulatory subunit gamma SH2 domain; binding).
For C[C@H](NC(=O)[C@@H](N)Cc1ccc(O)cc1)C(=O)N[C@@H](Cc1ccccc1)C(=O)O, the Kd was 3430 ± 218 nM (PRT1; ITC; pH 7.5, 25 °C).

For quick reference, copied from above:
With CC[C@H](CO)Nc1nc(NCc2ccc(-c3ccccn3)cc2)c2ncn(C(C)C)c2n1 the Kd was 3300 nM (DYRK1A (Homo sapiens, UniProt Q13627); binding, competition affinity chromatography; SH-SY5Y cell extract).
With CN(CC(=O)O)C(=N)NP(=O)(O)O the Kd was 328000 ± 201000 nM (CKMT1A (Homo sapiens, UniProt P12532, H99A); microscale thermophoresis; pH 7.0, H61A mutant, no substrate).
The Kd of CC[C@H](C)[C@H](NC(=O)[C@H](Cc1ccc(OP(=O)(O)O)cc1)NC(=O)[C@H](CCC(=O)O)NC(=O)[C@@H]1CCCN1C(=O)[C@@H](NC(=O)[C@@H]1CCCN1C(=O)[C@H](CC(C)C)NC(=O)[C@H](Cc1ccccc1)NC(=O)[C@@H](NC(=O)[C@H](CC(=O)O)NC(=O)[C@H](CC(=O)O)NC(=O)c1ccc2c(c1)C(=O)OC21c2ccc(N(C)C)cc2Oc2cc(N(C)C)ccc21)[C@@H](C)O)C(C)C)C(=O)N[C@@H](CC(N)=O)C(=O)N[C@@H](CCC(N)=O)C(=O)N[C@@H](CO)C(=O)N[C@H](C(=O)N1CCC[C@H]1C(=O)N[C@@H](CCCCN)C(=O)N[C@@H](CC(=O)O)C(=O)O)C(C)C is reported as 300 nM (Tyrosine-protein kinase Blk, SH2 domain (BLK, Homo sapiens, UniProt P51451); binding).
